Published values of several laboratories.
A part holds a random share of what one study measured. “And” joins repeats or separate records; there may be more than shown.
UniProt O75676, sequence (whole entry, looked up): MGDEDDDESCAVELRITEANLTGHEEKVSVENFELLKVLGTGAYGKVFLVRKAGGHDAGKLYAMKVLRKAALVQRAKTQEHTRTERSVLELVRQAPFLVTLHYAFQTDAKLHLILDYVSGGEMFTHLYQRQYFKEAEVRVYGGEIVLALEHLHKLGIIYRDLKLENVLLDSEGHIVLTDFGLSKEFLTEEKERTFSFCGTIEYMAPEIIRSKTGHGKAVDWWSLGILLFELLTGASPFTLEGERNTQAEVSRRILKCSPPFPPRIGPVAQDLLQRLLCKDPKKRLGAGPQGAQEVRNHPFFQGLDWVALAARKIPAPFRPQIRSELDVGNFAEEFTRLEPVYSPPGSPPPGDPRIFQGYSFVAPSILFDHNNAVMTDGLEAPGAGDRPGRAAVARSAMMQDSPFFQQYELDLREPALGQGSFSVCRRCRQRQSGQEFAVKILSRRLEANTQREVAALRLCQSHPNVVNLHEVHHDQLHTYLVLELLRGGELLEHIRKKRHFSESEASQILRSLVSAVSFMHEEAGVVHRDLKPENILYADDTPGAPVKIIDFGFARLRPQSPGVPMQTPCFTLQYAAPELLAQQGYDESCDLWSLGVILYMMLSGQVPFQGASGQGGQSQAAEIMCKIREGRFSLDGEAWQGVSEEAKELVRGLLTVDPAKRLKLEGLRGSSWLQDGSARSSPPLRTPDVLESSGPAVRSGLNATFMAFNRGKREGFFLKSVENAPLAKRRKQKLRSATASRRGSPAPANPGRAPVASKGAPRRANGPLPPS
UniProt Q9UL54, sequence (whole entry, looked up): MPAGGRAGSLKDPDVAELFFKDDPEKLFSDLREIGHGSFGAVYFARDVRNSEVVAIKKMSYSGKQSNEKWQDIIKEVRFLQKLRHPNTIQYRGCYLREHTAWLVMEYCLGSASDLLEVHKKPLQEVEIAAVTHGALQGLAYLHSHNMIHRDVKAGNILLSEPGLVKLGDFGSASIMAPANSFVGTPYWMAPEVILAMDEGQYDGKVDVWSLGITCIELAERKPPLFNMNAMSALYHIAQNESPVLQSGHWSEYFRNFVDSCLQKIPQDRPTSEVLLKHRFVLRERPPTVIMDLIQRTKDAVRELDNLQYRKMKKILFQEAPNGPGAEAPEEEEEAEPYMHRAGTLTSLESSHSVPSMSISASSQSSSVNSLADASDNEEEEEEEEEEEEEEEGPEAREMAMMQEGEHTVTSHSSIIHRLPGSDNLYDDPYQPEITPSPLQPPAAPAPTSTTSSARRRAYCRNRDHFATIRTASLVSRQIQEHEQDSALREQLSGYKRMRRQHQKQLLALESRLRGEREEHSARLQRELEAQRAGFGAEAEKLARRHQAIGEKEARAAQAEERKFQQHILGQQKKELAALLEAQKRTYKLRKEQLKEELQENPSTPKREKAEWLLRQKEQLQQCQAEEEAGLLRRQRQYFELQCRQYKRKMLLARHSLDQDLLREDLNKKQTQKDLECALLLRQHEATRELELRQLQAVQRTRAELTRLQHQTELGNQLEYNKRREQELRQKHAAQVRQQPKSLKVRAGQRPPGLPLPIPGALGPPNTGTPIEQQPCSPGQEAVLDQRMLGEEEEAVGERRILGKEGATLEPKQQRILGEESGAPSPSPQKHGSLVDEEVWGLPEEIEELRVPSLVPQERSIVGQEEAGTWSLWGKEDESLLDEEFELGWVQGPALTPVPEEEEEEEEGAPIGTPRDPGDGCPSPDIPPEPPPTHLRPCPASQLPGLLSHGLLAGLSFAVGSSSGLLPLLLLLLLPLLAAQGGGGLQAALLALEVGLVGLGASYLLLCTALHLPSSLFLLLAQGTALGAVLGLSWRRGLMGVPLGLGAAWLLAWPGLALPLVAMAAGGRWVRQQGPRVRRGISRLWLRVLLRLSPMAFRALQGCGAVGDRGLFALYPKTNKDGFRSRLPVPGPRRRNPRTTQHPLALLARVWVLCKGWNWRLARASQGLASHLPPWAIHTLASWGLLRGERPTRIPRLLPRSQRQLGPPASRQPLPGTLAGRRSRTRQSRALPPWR
UniProt Q6P2M8, sequence (whole entry, looked up): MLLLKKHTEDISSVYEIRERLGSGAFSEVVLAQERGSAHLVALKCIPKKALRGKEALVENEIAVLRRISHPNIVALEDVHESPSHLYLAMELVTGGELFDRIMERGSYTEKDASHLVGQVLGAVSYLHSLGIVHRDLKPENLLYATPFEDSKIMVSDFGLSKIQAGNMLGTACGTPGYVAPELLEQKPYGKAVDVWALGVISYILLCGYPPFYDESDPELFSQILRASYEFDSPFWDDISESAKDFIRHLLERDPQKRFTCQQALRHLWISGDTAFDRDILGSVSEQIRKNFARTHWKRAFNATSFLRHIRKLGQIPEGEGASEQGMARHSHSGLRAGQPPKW

Study 1
Target: DNA polymerase theta, ATPase domain (POLQ, Homo sapiens, UniProt O75417)
UniProt O75417, sequence (whole entry, unmodified, looked up): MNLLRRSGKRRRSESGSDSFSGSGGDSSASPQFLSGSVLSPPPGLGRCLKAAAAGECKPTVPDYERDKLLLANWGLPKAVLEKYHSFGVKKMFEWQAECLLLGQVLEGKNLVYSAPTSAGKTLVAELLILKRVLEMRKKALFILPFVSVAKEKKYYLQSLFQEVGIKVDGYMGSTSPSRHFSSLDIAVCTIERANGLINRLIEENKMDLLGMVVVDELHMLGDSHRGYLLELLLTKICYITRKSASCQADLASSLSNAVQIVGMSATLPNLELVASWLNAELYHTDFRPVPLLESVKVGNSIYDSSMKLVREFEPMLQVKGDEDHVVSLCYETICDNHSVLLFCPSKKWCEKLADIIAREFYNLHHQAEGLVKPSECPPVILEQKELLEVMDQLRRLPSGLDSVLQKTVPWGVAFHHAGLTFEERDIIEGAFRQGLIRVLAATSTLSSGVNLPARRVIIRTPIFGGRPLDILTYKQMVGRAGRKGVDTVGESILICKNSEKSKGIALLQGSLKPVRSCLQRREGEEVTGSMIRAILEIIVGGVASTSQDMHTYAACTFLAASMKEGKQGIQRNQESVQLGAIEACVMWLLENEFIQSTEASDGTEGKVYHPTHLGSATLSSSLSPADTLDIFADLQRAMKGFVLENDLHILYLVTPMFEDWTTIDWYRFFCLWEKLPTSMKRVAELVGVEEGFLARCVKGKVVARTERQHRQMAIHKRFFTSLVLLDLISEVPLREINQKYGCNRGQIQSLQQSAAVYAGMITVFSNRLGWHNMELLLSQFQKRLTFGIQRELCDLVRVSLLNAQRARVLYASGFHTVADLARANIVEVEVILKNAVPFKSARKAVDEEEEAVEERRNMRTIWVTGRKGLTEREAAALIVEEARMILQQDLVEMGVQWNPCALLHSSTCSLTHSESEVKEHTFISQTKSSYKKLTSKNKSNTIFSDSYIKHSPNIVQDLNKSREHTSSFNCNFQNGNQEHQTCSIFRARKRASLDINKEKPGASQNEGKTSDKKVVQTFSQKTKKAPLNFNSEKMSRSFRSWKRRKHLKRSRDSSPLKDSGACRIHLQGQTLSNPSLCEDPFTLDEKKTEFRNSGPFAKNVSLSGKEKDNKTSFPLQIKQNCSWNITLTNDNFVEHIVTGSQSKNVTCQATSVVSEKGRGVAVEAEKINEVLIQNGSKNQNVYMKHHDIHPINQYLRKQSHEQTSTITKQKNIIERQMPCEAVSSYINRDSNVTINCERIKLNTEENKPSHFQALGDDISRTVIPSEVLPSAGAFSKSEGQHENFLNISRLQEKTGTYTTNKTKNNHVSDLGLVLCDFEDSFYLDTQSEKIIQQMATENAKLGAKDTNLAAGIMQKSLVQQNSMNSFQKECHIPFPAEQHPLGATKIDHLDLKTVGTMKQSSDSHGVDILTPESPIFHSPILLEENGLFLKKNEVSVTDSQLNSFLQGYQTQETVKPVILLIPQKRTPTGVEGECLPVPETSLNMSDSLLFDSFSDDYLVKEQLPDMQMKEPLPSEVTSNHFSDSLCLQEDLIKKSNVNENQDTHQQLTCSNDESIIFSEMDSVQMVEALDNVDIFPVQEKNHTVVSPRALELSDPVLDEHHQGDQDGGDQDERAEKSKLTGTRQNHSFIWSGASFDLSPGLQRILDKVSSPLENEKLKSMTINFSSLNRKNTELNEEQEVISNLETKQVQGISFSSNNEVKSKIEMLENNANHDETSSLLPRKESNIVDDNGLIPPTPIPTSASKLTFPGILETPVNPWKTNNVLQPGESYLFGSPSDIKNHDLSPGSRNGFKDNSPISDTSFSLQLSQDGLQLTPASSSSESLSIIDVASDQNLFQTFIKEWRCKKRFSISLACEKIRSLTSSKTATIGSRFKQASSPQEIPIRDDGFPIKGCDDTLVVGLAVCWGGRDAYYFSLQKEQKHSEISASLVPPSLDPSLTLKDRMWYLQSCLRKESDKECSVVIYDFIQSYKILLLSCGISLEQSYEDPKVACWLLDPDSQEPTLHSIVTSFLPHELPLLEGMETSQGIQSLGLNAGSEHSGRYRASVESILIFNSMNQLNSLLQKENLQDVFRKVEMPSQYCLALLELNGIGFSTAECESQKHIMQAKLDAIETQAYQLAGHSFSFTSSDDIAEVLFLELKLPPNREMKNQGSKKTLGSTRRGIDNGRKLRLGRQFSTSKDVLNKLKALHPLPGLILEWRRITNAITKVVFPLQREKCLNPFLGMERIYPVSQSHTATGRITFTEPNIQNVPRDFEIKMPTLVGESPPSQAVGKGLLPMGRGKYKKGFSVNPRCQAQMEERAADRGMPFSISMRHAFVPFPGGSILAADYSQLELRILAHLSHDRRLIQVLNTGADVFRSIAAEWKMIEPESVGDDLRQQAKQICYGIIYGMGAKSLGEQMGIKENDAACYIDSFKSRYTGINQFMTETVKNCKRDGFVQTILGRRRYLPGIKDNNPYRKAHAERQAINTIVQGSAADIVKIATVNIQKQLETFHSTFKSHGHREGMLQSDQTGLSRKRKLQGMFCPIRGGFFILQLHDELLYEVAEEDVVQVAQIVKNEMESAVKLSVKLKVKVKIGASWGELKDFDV
Effect on: enzyme activity
Action: inhibitor
Concentration: 77 µM
Baseline: untreated
Structure (SMILES) | remaining activity
CC1CCc2c(N3CCC(O)CC3)c(F)cc3c(=O)c(C(=O)O)cn1c23 (stereo not drawn) | 97.9% and 78.8%
Cn1cc(CNCC2CCN(c3ncc(C(=O)NO)cn3)CC2)c2ccccc21 | 97.9%
CC(C)[C@H](N)C(=O)OCC(CO)OCn1cnc2c(=O)nc(N)[nH]c21 (stereo partly drawn) | 98%
CN(C)CCN(Cc1ccc(Cl)cc1)c1ccccn1 | 103%
COc1cc(Br)c(Nc2nc(-c3c(C)nc4ncccn34)cs2)c(Br)c1 | 88.9%
CCCCOc1ccc(CC(=O)NO)cc1 | 100% and 105%
CC1=C(C(=O)O)N2C(=O)[C@@H](NC(=O)[C@H](N)c3ccc(O)cc3)[C@H]2SC1 | 101%
CC1=C(CC(=O)O)c2cc(F)ccc2/C1=C\c1ccc(S(C)(=O)=O)cc1 | 89.6%
C[C@@H]1NC(=O)NC1=O | 102%

Study 2
SMILES: COc1ccc(CNC(=O)Nc2ncc([N+](=O)[O-])s2)cc1
Effect on: enzyme activity
Action: inhibitor
Concentration: 0.5 µM
Baseline: control
target | remaining activity
DCLK2 (Homo sapiens, UniProt Q8N568) | 99.2%
KDR (Homo sapiens, UniProt P35968) | 85.7%
MARK4 (Homo sapiens, UniProt Q96L34) | 92.2%
RPS6KA4 (Homo sapiens, UniProt O75676) | 101%
PLK3 (Homo sapiens, UniProt Q9H4B4) | 101%
MAP2K1 (Homo sapiens, UniProt Q02750) | 101%
MAPK14 (Homo sapiens, UniProt Q16539) | 104%
MAPK11 (Homo sapiens, UniProt Q15759) | 95.4%
CLK3 (Homo sapiens, UniProt P49761) | 93%
AKT2 (Homo sapiens, UniProt P31751) | 103%
Cyclin-dependent kinase 1, with cyclin A (CDK1, Homo sapiens, UniProt P06493) | 93.4%
Cyclin-dependent kinase 9, with cyclin K (CDK9, Homo sapiens, UniProt P50750) | 82.8%
PNCK (Homo sapiens, UniProt Q6P2M8) | 99.3%

Study 3
Organism: Sarcocystis neurona
Effect on: parasite growth
Concentration: 10 µM
Time: 96 h
Setting: second screen
Baseline: untreated
Structure (SMILES) | log2 fold change
NS(=O)(=O)c1cc2c(cc1C(F)(F)F)NCNS2(=O)=O | 0.36
Cc1occc(=O)c1O | 0.3
CC1Cc2ccccc2N1NC(=O)c1ccc(Cl)c(S(N)(=O)=O)c1 (stereo not drawn) | 0.61
CC(C)(C)NC(=O)[C@H]1CC[C@H]2[C@@H]3CC[C@H]4NC(=O)C=C[C@]4(C)[C@H]3CC[C@]12C | 0.06
CC(=O)[C@H]1CC[C@H]2[C@@H]3CCC4=CC(=O)CC[C@]4(C)[C@H]3CC[C@]12C | 0.15
CN1[C@@H]2CC[C@H]1C[C@@H](OC(=O)c1c[nH]c3ccccc13)C2 | 0.35
CCc1nn(CCCN2CCN(c3cccc(Cl)c3)CC2)c(=O)n1CCOc1ccccc1 | -1.28

Study 4
SMILES: CN1CCN(C(=O)c2ccc(NC(=O)Nc3ccc(N(C)c4ccnc(Nc5ccc(CS(C)(=O)=O)cc5)n4)cc3)cc2)CC1
Effect on: binding
Concentration: 1 µM
target | technique | remaining binding [%]
TAOK2 (Homo sapiens, UniProt Q9UL54) | competition with immobilised ligand | 76
MAST1 (Homo sapiens, UniProt Q9Y2H9) | – | 61
EPHB6 (Homo sapiens, UniProt O15197) | competition with immobilised ligand | 4.3
CDK16 (Homo sapiens, UniProt Q00536) | – | 76
MAP4K5 (Homo sapiens, UniProt Q9Y4K4) | competition with immobilised ligand | 32
MAPKAPK5 (Homo sapiens, UniProt Q8IW41) | – | 84
WNK4 (Homo sapiens, UniProt Q96J92) | – | 100

Excerpt of the above (study 2):
target | remaining activity
AKT2 (Homo sapiens, UniProt P31751) | 103%
MARK4 (Homo sapiens, UniProt Q96L34) | 92.2%
MAPK11 (Homo sapiens, UniProt Q15759) | 95.4%
RPS6KA4 (Homo sapiens, UniProt O75676) | 101%
MAPK14 (Homo sapiens, UniProt Q16539) | 104%
